Assay results gathered from unrelated publications.
Values joined by “and” are separate records of one study, mostly repeats; a detail may differ. Numbers after ± are the reported error. ≈ marks a conversion by molar mass, not a printed value.

SMILES | target or system | test | system | conditions | how to read | measurement | value
O=C(N1CCc2ccccc21)n1ccnn1 | Arabidopsis thaliana |  | wild type, seeds | 100 µM, after high-temperature exposure, added: 1 µM karrikin KAR2 |  | germination rate | 0%
c1coc(-c2n[nH]cc2-c2ccnc3ccccc23)c1 | CKA2 (Candida albicans) | kinase binding, MIB/MS competition | Candida albicans lysate | 10 µM | reference: DMSO | log2 fold change | -0.15
CCn1cc(-c2cc(Cn3ccnc3)cc3c2CCN([C@H](c2cc(OC)ccn2)C2CC2)C3=O)c(C(F)(F)F)n1 | MINO | cell growth, inhibitor |  | 120 h |  | EC50 | 2.7 µM
CC(C)n1ncc2c(C(=O)NCC3(C)CNC3)cc(C3CC3)nc21 | coxsackievirus B3 | CPE | Vero | 15 µM |  | cell protection | 97% and 103%
C=C[C@]1(C)C[C@@H](OC(=O)CSCCN(CC)CC)[C@]2(C)[C@H](C)CC[C@]3(CCC(=O)[C@H]32)[C@@H](C)[C@@H]1O | Mycoplasmoides gallisepticum |  | chicken, infected | oral, 40 mg/kg | direction not given | air sac lesion score | 3 and 2 and 1
N#Cc1ccn2c(-c3ccncc3)c(-c3ccc(F)cc3)nc2c1 | orf19.6492 kinase Candida albicans | MIB/MS competition binding | Candida albicans cell lysate | 10 µM | reference: DMSO, lower = stronger binding | log2 fold change | 0.098
O=C(/C=C/C=C/C=C/C1CCCCC1)NC1=C[C@@](O)(/C=C/C=C/C=C/C(=O)NC2=C(O)CCC2=O)[C@@H]2O[C@@H]2C1=O | COV318 | cell growth, CellTiter-Glo |  | 78 h |  | GI50 | 16 µM
CC(=O)NC[C@H]1CN(c2ccc(N3CCOCC3)c(F)c2)C(=O)O1 | Enterococcus faecium |  | HM-952 |  |  | MIC | 2.96 µM (≈ 0.999 µg/mL)
Cc1n[nH]c2ccc(-c3cc(OC[C@@H](N)Cc4ccccc4)cnc3-c3ccoc3)cc12 | orf19.4518 kinase Candida albicans | MIB/MS competition binding | Candida albicans cell lysate | 100 nM | reference: DMSO, lower = stronger binding | log2 fold change | -0.0101
CN[C@H](CC(C)C)C(=O)N[C@H]1C(=O)N[C@@H](CC(N)=O)C(=O)N[C@H]2C(=O)N[C@H]3C(=O)N[C@H](C(=O)N[C@H](C(=O)O)c4cc(O)cc(O)c4-c4cc3ccc4O)[C@H](O)c3ccc(c(Cl)c3)Oc3cc2cc(c3O[C@@H]2O[C@H](CO)[C@@H](O)[C@H](O)[C@H]2O[C@H]2C[C@](C)(N)[C@H](O)[C@H](C)O2)Oc2ccc(cc2Cl)[C@H]1O | Staphylococcus |  | MRSE-8, mouse systemic infection | intravenous | survival | ED50 | 4.06 mg/kg
CC/C(=N\NC(=O)NCc1cccc(O)c1)c1ccc(O)c(C)c1O | SK-OV-3 | Western blot, refers to: YAP |  | 10 µM, 3 h, 3D gellan gum culture, unit not given | reference: β-actin | protein level | 0.98 ± 0.11
c1ccc(-c2n[nH]cc2-c2ccnc3ccccc23)nc1 | orf19.6492 kinase Candida albicans | MIB/MS competition binding | Candida albicans cell lysate | 10 µM | reference: DMSO, lower = stronger binding | log2 fold change | 1.32
Cn1cc(-c2ccc(-c3cncc(Cl)c3N3CCC4(CCNC4=O)CC3)cc2)cn1 | COLO 205 | gene expression, microarray, refers to: GDF15 (PDF) mRNA |  | concentration not given, 6 h | reference: untreated cells | log2 fold change | 2.66
NC(=O)c1cnc2[nH]ccc2c1N[C@@H]1[C@@H]2CC3C[C@H]1C[C@@](O)(C3)C2 |  | flow cytometry | Japanese healthy men, blood | oral, 10 mg twice daily, 72 h after day 7 dose | reference: baseline | CD8+ effector memory change | 0.03%
CC(C)NCC(O)c1ccc(O)c(O)c1 (stereo not drawn) |  |  | ventricular cardiomyocytes, C57BL/6 mouse | dose not given, 0.644 s |  | sarcomere length | 1.72 µm

Repeated from above:
SMILES | target or system | test | system | conditions | how to read | measurement | value
CC(C)n1ncc2c(C(=O)NCC3(C)CNC3)cc(C3CC3)nc21 | coxsackievirus B3 | CPE | Vero | 15 µM |  | cell protection | 97% and 103%
